Measurements collected from several papers.
Values joined by “and” are separate records of one study, mostly repeats; a detail may differ. ± marks the error that the study gave.
SIRT3: NAD-dependent protein deacetylase sirtuin-3, mitochondrial (SIRT3, Homo sapiens, UniProt Q9NTG7)
UniProt Q9NTG7, sequence (whole entry, looked up): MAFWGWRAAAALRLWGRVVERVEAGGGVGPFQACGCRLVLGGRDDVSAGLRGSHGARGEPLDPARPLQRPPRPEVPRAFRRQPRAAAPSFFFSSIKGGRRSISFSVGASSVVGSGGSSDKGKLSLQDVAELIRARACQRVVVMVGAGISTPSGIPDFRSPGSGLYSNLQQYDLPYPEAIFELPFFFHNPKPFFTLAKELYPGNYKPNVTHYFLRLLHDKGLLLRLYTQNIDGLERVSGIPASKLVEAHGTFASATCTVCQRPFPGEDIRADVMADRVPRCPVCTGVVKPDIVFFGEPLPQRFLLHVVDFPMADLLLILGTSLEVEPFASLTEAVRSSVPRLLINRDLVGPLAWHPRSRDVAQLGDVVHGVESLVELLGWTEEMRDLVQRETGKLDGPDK
HTR1E: 5-hydroxytryptamine receptor 1E (HTR1E, Homo sapiens, UniProt P28566)
UniProt P28566, sequence (whole entry, looked up): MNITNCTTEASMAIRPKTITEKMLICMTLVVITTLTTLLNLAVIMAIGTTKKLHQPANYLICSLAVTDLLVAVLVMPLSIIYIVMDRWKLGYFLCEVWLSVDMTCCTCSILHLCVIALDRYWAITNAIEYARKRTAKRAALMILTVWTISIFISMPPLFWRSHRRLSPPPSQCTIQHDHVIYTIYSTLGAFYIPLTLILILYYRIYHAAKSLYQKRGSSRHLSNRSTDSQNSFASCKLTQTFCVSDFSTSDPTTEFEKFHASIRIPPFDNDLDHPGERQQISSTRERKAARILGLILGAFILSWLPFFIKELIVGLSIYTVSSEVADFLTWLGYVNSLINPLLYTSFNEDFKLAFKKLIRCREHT
SIRT1: NAD-dependent protein deacetylase sirtuin-1 (SIRT1, Homo sapiens, UniProt Q96EB6)
UniProt Q96EB6, sequence (whole entry, looked up): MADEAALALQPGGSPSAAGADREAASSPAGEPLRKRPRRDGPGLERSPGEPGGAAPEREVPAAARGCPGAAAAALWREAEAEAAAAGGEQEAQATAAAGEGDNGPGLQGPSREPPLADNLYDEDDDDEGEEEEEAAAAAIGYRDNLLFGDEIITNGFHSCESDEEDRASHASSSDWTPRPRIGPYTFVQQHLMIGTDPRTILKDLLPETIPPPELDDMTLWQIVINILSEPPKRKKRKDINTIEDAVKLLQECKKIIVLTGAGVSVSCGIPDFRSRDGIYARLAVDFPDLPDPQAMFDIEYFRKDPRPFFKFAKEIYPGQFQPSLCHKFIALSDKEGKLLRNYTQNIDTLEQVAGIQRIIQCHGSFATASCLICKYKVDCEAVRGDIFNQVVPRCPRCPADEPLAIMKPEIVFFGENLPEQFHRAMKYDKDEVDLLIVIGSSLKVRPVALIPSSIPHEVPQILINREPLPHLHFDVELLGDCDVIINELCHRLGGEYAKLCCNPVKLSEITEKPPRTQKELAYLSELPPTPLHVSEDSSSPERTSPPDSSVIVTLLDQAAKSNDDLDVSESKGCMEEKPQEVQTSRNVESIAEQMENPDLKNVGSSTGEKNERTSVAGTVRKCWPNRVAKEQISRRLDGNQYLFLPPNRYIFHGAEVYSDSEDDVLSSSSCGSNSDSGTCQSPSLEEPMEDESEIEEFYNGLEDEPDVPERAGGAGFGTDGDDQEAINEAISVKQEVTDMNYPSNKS
SETDB1 triple Tudor domain: Histone-lysine N-methyltransferase SETDB1, triple Tudor domain (SETDB1, Homo sapiens, UniProt Q15047)
CXCR4: C-X-C chemokine receptor type 4 (CXCR4, Homo sapiens, UniProt P61073)
UniProt P61073, sequence (whole entry, looked up): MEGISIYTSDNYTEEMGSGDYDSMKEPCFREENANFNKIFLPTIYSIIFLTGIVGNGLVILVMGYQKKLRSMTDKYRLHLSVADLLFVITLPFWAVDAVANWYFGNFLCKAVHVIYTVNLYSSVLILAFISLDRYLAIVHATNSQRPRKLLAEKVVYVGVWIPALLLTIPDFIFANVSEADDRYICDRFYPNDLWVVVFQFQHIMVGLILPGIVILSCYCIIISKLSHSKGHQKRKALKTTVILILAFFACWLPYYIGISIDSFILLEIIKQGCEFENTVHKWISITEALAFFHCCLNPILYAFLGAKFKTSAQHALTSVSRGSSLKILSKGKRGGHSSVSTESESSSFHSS
AMY2: Pancreatic alpha-amylase (AMY2, Sus scrofa, UniProt P00690)
UniProt P00690, sequence (whole entry, looked up): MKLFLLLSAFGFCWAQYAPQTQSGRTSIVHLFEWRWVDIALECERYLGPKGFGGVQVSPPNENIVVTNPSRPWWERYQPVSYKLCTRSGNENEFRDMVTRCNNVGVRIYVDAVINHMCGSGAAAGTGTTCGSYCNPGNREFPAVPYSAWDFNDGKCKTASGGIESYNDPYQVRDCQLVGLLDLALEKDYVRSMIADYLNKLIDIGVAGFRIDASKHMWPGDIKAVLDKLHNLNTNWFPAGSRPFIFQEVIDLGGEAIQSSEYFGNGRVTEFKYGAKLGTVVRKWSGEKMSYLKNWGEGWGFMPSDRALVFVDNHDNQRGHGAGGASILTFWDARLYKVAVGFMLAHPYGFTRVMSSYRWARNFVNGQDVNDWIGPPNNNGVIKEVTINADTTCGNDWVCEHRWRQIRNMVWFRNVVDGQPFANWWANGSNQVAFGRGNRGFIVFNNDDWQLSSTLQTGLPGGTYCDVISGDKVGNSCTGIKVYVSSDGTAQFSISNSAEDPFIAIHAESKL
F2: Prothrombin (F2, Homo sapiens, UniProt P00734)
SRPK3: SRSF protein kinase 3 (SRPK3, Homo sapiens, UniProt Q9UPE1)
UniProt Q9UPE1, sequence (whole entry, looked up): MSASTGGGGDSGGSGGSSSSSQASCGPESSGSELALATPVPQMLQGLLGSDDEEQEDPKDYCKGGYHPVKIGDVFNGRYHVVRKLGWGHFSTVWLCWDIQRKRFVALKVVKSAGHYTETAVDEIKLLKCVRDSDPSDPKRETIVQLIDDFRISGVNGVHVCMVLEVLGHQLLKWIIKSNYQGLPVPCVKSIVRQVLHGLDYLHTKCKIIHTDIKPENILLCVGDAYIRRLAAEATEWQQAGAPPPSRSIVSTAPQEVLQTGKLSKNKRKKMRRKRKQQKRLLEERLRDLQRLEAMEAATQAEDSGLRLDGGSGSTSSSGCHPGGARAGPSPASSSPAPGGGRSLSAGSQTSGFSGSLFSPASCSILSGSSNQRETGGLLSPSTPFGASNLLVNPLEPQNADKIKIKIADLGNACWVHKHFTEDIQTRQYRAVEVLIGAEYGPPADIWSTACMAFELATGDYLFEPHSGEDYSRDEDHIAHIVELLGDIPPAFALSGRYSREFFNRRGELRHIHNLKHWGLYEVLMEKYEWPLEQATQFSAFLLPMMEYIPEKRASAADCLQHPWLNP
UniProt P43116, sequence (whole entry, looked up): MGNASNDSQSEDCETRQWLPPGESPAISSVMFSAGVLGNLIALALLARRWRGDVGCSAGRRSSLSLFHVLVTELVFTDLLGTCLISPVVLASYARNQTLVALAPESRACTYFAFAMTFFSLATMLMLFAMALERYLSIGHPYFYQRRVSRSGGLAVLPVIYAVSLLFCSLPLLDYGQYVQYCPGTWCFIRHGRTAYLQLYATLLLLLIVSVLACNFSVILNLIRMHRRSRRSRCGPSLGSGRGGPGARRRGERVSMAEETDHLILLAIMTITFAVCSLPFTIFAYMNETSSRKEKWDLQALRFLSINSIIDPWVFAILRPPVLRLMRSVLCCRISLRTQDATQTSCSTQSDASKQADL
UniProt P41968, sequence (whole entry, looked up): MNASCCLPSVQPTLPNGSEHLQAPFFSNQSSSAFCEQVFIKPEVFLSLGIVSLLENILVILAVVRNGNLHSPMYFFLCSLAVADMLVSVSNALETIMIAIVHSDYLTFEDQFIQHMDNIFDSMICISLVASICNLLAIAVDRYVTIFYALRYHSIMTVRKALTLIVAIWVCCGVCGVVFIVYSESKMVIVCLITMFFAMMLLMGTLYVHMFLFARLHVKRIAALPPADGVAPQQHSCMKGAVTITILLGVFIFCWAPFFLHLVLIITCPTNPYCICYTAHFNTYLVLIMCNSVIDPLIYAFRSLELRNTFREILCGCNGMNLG
UniProt Q4FZB7, sequence (whole entry, looked up): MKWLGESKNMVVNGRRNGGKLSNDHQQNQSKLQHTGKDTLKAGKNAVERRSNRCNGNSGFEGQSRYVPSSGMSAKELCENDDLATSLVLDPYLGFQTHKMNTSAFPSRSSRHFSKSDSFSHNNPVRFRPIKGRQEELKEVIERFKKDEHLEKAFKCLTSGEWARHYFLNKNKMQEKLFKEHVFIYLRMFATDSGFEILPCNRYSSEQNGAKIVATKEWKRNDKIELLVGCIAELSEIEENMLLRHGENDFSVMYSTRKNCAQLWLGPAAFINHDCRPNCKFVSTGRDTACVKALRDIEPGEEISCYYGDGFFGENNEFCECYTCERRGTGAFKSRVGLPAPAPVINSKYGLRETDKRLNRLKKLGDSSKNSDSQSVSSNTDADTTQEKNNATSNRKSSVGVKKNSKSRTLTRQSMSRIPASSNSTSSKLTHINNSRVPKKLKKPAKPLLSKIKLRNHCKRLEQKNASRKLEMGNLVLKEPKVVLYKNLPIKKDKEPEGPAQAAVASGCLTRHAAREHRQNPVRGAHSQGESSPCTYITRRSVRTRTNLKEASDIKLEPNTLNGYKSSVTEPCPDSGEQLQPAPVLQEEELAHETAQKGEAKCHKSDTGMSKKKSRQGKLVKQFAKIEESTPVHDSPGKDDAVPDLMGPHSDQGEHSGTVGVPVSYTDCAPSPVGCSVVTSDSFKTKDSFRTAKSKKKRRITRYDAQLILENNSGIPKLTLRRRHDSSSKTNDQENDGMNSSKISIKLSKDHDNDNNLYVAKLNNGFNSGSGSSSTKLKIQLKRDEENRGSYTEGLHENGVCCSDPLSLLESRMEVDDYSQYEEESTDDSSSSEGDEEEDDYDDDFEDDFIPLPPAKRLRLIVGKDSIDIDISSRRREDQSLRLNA
UniProt O15151, sequence (whole entry, looked up): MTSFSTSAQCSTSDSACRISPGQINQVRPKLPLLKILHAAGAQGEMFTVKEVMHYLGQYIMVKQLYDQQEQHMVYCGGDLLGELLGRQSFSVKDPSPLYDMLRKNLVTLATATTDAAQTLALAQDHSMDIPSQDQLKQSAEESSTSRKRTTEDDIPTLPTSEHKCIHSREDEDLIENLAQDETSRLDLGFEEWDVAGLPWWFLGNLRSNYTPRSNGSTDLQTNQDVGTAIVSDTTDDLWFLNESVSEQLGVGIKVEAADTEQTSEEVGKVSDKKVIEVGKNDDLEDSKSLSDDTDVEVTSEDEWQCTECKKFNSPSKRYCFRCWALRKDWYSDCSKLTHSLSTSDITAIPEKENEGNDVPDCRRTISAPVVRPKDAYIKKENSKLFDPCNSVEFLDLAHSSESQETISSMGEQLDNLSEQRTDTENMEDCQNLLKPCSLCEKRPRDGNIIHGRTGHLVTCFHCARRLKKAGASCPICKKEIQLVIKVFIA

`C[Si]1(C[C@H](CN)CC(=O)O)CCCC1` has an inhibition of 5% (KATP channel, human; binding, radioligand binding; 70 µM, together with: [3H]glyburide).
For `C[C@H](NC(=O)[C@H](CC(=O)NCC(C)(C)C)NC(=O)C(=O)c1c[nH]c2ccccc12)C(=O)NCc1ccc(F)cc1F`, the inhibition was 15% (trypsin; enzyme activity, inhibitor; 100 µM).
For `CCCCCCCCCCCCCC(=S)NCCCC[C@H](NS(C)(=O)=O)C(=O)N[C@H](C)C(=O)N[C@@H](CCCNC(=N)N)C(N)=O`, the inhibition was 31% (SIRT3; enzyme activity, inhibitor; 10 µM).
The inhibition of `CN(Cc1ccc(/C=C/C(=O)NO)cc1)CC12CC3CC(CC(C3)C1)C2` is reported as -2% (human 5-HT2A receptor; antagonist radioligand binding; 0.05 µM).
The inhibition of `Brc1ccccc1-c1nnc(CSc2nnnn2-c2ccccc2)o1` is reported as 16% (HTR1E; ligand displacement, radioligand; 10 µM).
For `O=C(NC1CCC1)[C@H](Cc1c[nH]c2ccccc12)NC(=O)[C@H](CCCCNC(=S)NCCc1noc(=O)[nH]1)NS(=O)(=O)c1cccc(F)c1`, the inhibition was 4% (SIRT1; enzyme activity, inhibitor; 1 µM).
For `CN(C)CCCCCCNc1nc(NCCCCCN(C)C)nc2ccc(NC(=O)CCl)cc12`, the inhibition was 93.7% (SETDB1 triple Tudor domain; 11.11 µM).
`O=C1CO[C@H](CNC(=O)C2(c3ccc(Cl)cc3)CC2)CN1C1Cc2ccccc2C1` has an inhibition of 2% (CXCR4; β-arrestin recruitment, antagonist; 1 µM).
The inhibition of `Cc1ccnc(OC[C@H]2CN(CCN3CCc4ccccc43)CCO2)c1` is reported as -13.1% (HTR1E; radioligand binding; concentration not given, together with: [3H]5-HT).
The inhibition of `CCCCCCCCCCCCNC(=S)NCCCC[C@H](NC(C)=O)C(=O)N[C@H](C)C(=O)N[C@@H](CCCNC(=N)N)C(N)=O` is reported as 34% (SIRT1; enzyme activity, inhibitor; 1 µM).
For `O=C1c2sc(-c3ccc(N4CCC(CO)CC4)nc3F)nc2CCN1c1cccnc1`, the inhibition was 30% (PTGER2 (Homo sapiens, UniProt P43116); ligand displacement, radioligand; 1 µM).
`O=[N+]([O-])c1ccc(Cn2cc(Cn3cc(CO)nn3)nn2)cc1` has an inhibition of 64 ± 11% (Cytohesin-3, PH domain (Cyth3, Mus musculus, UniProt O08967); PIP3 binding to PH domain, SPR; 200 µM).
The inhibition of `O=c1cc(-c2ccccc2)oc2c(Br)c(O)c(O)c(O)c12` is reported as 0% (AMY2; enzyme activity, inhibitor; 50 µM, 30 min).
With `CC(=O)N[C@H](C(=O)N[C@@H](CO)C(=O)N[C@@H](Cc1ccccc1)C(=O)N[C@H]1CCCCNC(=N)Nc2ccc(cc2)CCNC(=N)NCCCC[C@@H](C(=O)N2CCC[C@H]2C(N)=O)NC(=O)[C@H](CC(C)C)NC(=O)[C@H](CC(C)C)NC(=O)[C@H](C)NC(=O)[C@H](Cc2c[nH]c3ccccc23)NC(=O)[C@H](Cc2ccc(O)cc2)NC(=O)[C@H](CCC(=O)O)NC1=O)[C@@H](C)O` the inhibition was 92% (Protein Mdm4 (MDM4, Homo sapiens, UniProt O15151); protein-protein interaction, inhibitor, TR-FRET; 0.1 µM).
With `C=CCNC(=O)[C@H](CCc1ccccc1)NC(=O)[C@H](CC(=O)NCC(C)(C)C)NC(=O)CCc1ccccc1` the inhibition was 15% (F2; enzyme activity, inhibitor; 100 µM).
With `C#CC(=O)Nc1ccc2nc(NCCCCCN(C)C)nc(NCCCCCCN(C)C)c2c1` the inhibition was 46.7% (SETDB1 triple Tudor domain; 1.235 µM).
For `CC[C@H](C)[C@H](NC(=O)[C@@H](NC(=O)[C@H](Cc1c[nH]c2ccccc12)NC(=O)[C@H](CO)NC(=O)[C@H](Cc1c[nH]c2ccccc12)NC(=O)[C@H](CO)NC(=O)[C@H](CCC(=O)O)NC(C)=O)[C@@H](C)CC)C(N)=O`, the inhibition was 24 ± 3.4% (Programmed cell death 1 ligand 1, with PD-1 (CD274, Homo sapiens, UniProt Q9NZQ7); PD-1/PD-L1 binding, ELISA; 10 µM).
The inhibition of `O=C1c2sc(-c3ccc(N4CCC(F)C4)nc3F)nc2CCN1c1cccnc1` (stereo not shown) is reported as -7% (MC3R (Homo sapiens, UniProt P41968); ligand displacement, radioligand; 1 µM).
`C/C=C/C(=O)Nc1ccc2nc(NCCCCCN(C)C)nc(NCCCCCCN(C)C)c2c1` has an inhibition of 67% (KMT5B (Homo sapiens, UniProt Q4FZB7); enzyme activity, inhibitor, radiometric; 50 µM).
For `COc1cc(NC(=O)Nc2cccc(C(=O)N3CCC(C)CC3)c2)cc(OC)c1`, the inhibition was 74.9 ± 21.1% (Penicillin-binding protein 4 (Staphylococcus aureus, UniProt P72355); Bocillin-FL binding, fluorescence polarization; 50 µM, 1 µM PBP4).
The inhibition of `COc1ccc(C[C@H](NC(=O)Cc2cccc(Oc3ccccc3)c2)C(=O)N[C@@H](Cc2c[nH]c3ccccc23)C(=O)NCc2ccc(C)cc2)cc1OC` is reported as 21% (F2; enzyme activity, inhibitor; 100 µM).
With `C[Si](C)(C)C[C@@H](CN)CC(=O)O` the inhibition was 5% (AMPA receptor, rat; binding, radioligand binding; 75 µM, together with: [3H]AMPA).
`CCc1noc(CN(C)Cc2cn(-c3ccccc3)nc2-c2ccc(Cl)cc2)n1` has an inhibition of 62% and 67% (CXCR4; arrestin recruitment, DiscoverX arrestin; 30 µM).
With `CC(=O)C12NC(C)(C)CC1(C)C(=O)C1=C2c2c(c3c4n2C(C)(C)CC2=C4C4(CC(C)(C)NC(C)(C4)C2=O)CC3(C)C)C(=O)C(C)(C)N1` (single isomer, unassigned; (-)) the inhibition was 21.4% (Glutamate NMDA receptor; GRIN1/GRIN2A (Homo sapiens, UniProt Q05586+Q12879); ion current, inhibitor, patch clamp; HEK-293T; 10 µM).
The inhibition of `C=CS(=O)(=O)Nc1ccc2nc(NCCCCCN(C)C)nc(NCCCCCCN(C)C)c2c1` is reported as 129% (SETDB1 triple Tudor domain; 100 µM).
With `O=C(Nc1ccccc1)Nc1ccccc1` the inhibition was 91.6% (SRPK3; binding, KINOMEscan competitive binding; concentration not given).
`CCCCCCCCCCCCNC(=S)NCCCC[C@H](NC(=O)OCc1ccccc1)C(=O)N[C@@H](Cc1c[nH]c2ccccc12)C(=O)N[C@@H](CC(C)C)C(N)=O` has an inhibition of 18% (SIRT3; enzyme activity, inhibitor; 10 µM).
`O=C(Nc1ccc(C(F)F)cc1)[C@H](CC1CCCCC1)Nc1nn2c(=O)ccnc2s1` has an inhibition of -4% (PTPN9 (Homo sapiens, UniProt P43378); enzyme activity, inhibitor; 10 µM).
The inhibition of `CCCCCCCCCCCCNC(=S)NCCCC[C@H](NC(=O)OCc1ccccc1)C(=O)N[C@@H](CCC(=O)O)C(=O)N[C@@H](CCCNC(=N)N)C(N)=O` is reported as 56% (SIRT1; enzyme activity, inhibitor; 1 µM).
With `COc1c(Br)c(O)c(Br)c2c1C(=O)CC(c1ccccc1)O2` (stereo not shown) the inhibition was 45% (AMY2; enzyme activity, inhibitor; 50 µM, 30 min).
With `C[C@H](NC(=O)[C@H](CC(=O)NCC(C)(C)C)NC(=O)CCc1ccccc1)C(=O)NCc1ccccc1Cl` the inhibition was 2% (chymotrypsin; enzyme activity, inhibitor; 100 µM).
`Cc1nc2c(F)cc(-c3nc(Nc4ccc(CNC(=O)CCCCCCC(=O)NO)cc4)ncc3F)cc2n1C(C)C` has an inhibition of 1% (Phosphatidylinositol 4,5-bisphosphate 3-kinase catalytic subunit beta isoform, with p85 alpha (Pik3cb, Mus musculus, UniProt Q8BTI9); enzyme activity; 1 µM, p110β/p85α)(m mouse).
`CN(C(=O)N(C)c1ccc(C#N)cc1)c1ccccc1` gave an inhibition of 3.3% (SRPK3; enzyme activity, inhibitor, FRET; 10 µM).
With `C[C@@H](O)[C@H](NC(=O)c1ccc(OCc2ccccc2)cc1)C(=O)N[C@@H](CCc1ccccc1)C(=O)NCc1ccccc1Cl` the inhibition was 29% (F2; enzyme activity, inhibitor; 100 µM).

Excerpt of the above:
For `CN(C)CCCCCCNc1nc(NCCCCCN(C)C)nc2ccc(NC(=O)CCl)cc12`, the inhibition was 93.7% (SETDB1 triple Tudor domain; 11.11 µM).
`O=C1CO[C@H](CNC(=O)C2(c3ccc(Cl)cc3)CC2)CN1C1Cc2ccccc2C1` has an inhibition of 2% (CXCR4; β-arrestin recruitment, antagonist; 1 µM).
The inhibition of `Cc1ccnc(OC[C@H]2CN(CCN3CCc4ccccc43)CCO2)c1` is reported as -13.1% (HTR1E; radioligand binding; concentration not given, together with: [3H]5-HT).
The inhibition of `CCCCCCCCCCCCNC(=S)NCCCC[C@H](NC(C)=O)C(=O)N[C@H](C)C(=O)N[C@@H](CCCNC(=N)N)C(N)=O` is reported as 34% (SIRT1; enzyme activity, inhibitor; 1 µM).
For `O=C1c2sc(-c3ccc(N4CCC(CO)CC4)nc3F)nc2CCN1c1cccnc1`, the inhibition was 30% (PTGER2 (Homo sapiens, UniProt P43116); ligand displacement, radioligand; 1 µM).
